Results gathered from unrelated publications.
Each numbered part is a random draw from the data of one study; scales do not carry over between parts. Several values in a cell are separate wells, animals, samples, runs or records.
Chain of UniProt Q14012 (whole entry, looked up): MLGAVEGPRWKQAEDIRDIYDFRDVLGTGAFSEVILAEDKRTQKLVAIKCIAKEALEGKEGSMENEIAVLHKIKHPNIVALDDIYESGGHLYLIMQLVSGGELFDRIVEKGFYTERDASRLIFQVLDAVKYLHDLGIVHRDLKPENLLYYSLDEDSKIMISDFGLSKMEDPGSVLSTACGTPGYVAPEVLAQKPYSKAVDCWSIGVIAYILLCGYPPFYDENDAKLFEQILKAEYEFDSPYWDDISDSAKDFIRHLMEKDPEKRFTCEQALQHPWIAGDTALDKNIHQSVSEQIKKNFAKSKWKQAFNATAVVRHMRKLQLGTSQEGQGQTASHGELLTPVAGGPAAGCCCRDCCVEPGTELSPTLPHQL
Chain of UniProt P06241 (whole entry, looked up): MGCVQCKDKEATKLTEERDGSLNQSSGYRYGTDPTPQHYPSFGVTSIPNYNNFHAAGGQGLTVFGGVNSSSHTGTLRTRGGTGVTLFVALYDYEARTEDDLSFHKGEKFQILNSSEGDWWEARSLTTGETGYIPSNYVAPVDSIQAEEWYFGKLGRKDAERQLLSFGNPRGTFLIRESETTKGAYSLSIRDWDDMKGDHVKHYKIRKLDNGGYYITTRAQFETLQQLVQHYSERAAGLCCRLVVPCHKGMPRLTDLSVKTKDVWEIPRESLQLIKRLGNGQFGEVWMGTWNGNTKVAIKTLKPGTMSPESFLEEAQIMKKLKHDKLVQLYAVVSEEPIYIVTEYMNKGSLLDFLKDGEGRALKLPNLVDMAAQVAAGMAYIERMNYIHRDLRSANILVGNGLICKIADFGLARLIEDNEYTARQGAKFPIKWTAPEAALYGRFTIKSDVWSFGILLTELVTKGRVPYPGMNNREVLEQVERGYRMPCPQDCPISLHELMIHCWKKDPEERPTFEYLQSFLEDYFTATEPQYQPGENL
Chain of UniProt P11802 (whole entry, looked up): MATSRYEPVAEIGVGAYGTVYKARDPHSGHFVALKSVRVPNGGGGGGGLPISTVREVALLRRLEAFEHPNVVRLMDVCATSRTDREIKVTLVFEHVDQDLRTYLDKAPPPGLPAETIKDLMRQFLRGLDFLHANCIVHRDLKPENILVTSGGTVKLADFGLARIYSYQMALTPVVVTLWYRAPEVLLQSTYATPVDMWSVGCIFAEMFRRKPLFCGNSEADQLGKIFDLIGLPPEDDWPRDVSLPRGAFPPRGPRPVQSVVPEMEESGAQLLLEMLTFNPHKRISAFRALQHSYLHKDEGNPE

Series 1
Host: human
Matrix: microsomes or S9
Concentration: 2 µM
Time: 0.5 h
For `Cc1ccc(CC2S/C(=N/N=C/c3ccncc3)N(Cc3ccco3)C2=O)cc1C` (stereo not shown), the remaining compound was 27.9%.
`CS(=O)(=O)C1(C(=O)NC2CCCS(=O)(=O)C2)CCCC1` (stereo not shown) gave a remaining compound of 50.1%.
`c1ccc(-c2ncc(CNc3cccc(-c4nnc[nH]4)c3)s2)nc1` gave a remaining compound of 83.8%.
`Cc1nn(C)c2c1N(C(=O)OC(C)(C)C)CC(C)N2C(=O)c1cc(Cl)cc(Cl)c1` (stereo not shown) gave a remaining compound of 23%.
`COc1ccc(Cc2nc3c4c(ncn3n2)OC(C)=C(C(C)=O)C4c2ccccc2)cc1OC` (stereo not shown) has a remaining compound of 22.8%.
With `Cc1nc(CC(C)C)cc(C(=O)N2C[C@@H](N(C)C)[C@H](C(C)C)C2)n1` the remaining compound was 33.5%.
With `CC1(C)CC2(CCCN(CC(O)(c3ccccc3)c3ccccc3)C2)CCO1` (stereo not shown) the remaining compound was 0.00552%.
The remaining compound of `COC1CCN(c2ncnc3c2c(Br)cn3S(=O)(=O)c2ccc(C)cc2)CC1` is reported as 4.12%.
For `Cn1c(=O)c2c(nc(C(=O)N3CC[C@H](NC(=O)OC(C)(C)C)C3)n2Cc2ccccc2)n(C)c1=O`, the remaining compound was 6.67%.
For `CCCn1nc(C)c(-c2cncn2Cc2cccc(OC(C)C)c2)c1C`, the remaining compound was 4.63%.
`Cc1noc2c1C(CC(C)C)C1=C(O)CC(C)(C)CC1=N2` (stereo not shown) has a remaining compound of 30.1%.
The remaining compound of `CC(C)c1noc(-c2cccc(=O)n2CC(=O)N2CCN(c3ccc(F)cc3)CC2)n1` is reported as 6.41%.
The remaining compound of `O=[N+]([O-])c1ccc(CNC2=NS(=O)(=O)c3cc(Cl)ccc32)cc1` is reported as > 99%.
The remaining compound of `Cc1cccc(NC(=O)c2oc3ccccc3c2NC(=O)c2cc(-c3ccc4c(c3)OCCO4)on2)c1` is reported as 51.8%.
`COc1cc(=O)[nH]cc1C(=O)N1CCN(c2cncc(F)c2)CC1` gave a remaining compound of 66.4%.
For `Cn1ncc2c(-n3cc(Br)cn3)ncnc21`, the remaining compound was 72.1%.
`CN(CCO)S(=O)(=O)c1ccc2c(c1)oc(=O)c1cc(S(=O)(=O)N(C)CCO)ccc12` gave a remaining compound of 20.5%.
For `CC(C)(C)C1CCc2c(sc(NC(=O)Cc3ccccc3)c2C#N)C1` (stereo not shown), the remaining compound was 94.9%.
For `NC(=O)C1CN(c2cc(=O)n3ccccc3n2)CCN1` (stereo not shown), the remaining compound was 92.5%.

Series 2
Compound: CCC(=O)N[C@H]1CC[C@@H](C(=O)N(C)c2ccc(-c3nc4ccccc4o3)cc2)C1
Observed: cell-free assay
Method: competition with immobilised ligand
Concentration: 1 µM
BMX (Homo sapiens, UniProt P51813) — remaining binding: 100%.
The remaining binding was 100% (FYN (Homo sapiens, UniProt P06241)).
The remaining binding was 100% (LTK (Homo sapiens, UniProt P29376)).
CAMK1 (Homo sapiens, UniProt Q14012) — remaining binding: 95%.
It gave 85% for remaining binding (Receptor-type tyrosine-protein kinase FLT3, autoinhibited (FLT3, Homo sapiens, UniProt P36888)).
Cyclin-dependent kinase 4, with cyclin D1 (CDK4, Homo sapiens, UniProt P11802) — remaining binding: 79%.
FLT3 (Homo sapiens, UniProt P36888, F691L/ITD) — remaining binding: 84%.
RAF1 (Homo sapiens, UniProt P04049) — remaining binding: 100%.
For DCLK1 (Homo sapiens, UniProt O15075): remaining binding read 100%.
Tyrosine-protein kinase ABL1, phosphorylated (ABL1, Homo sapiens, UniProt P00519) — remaining binding: 72%.
It gave 100% for remaining binding (MAPK6 (Homo sapiens, UniProt Q16659)).

Series 3
Target: Dual specificity tyrosine-phosphorylation-regulated kinase 2 (DYRK2, Homo sapiens, UniProt Q92630)
Observed: enzyme activity
Mode: inhibitor
Concentration: 0.5 µM
Relative to: control
Target sequence (Q92630 1-601): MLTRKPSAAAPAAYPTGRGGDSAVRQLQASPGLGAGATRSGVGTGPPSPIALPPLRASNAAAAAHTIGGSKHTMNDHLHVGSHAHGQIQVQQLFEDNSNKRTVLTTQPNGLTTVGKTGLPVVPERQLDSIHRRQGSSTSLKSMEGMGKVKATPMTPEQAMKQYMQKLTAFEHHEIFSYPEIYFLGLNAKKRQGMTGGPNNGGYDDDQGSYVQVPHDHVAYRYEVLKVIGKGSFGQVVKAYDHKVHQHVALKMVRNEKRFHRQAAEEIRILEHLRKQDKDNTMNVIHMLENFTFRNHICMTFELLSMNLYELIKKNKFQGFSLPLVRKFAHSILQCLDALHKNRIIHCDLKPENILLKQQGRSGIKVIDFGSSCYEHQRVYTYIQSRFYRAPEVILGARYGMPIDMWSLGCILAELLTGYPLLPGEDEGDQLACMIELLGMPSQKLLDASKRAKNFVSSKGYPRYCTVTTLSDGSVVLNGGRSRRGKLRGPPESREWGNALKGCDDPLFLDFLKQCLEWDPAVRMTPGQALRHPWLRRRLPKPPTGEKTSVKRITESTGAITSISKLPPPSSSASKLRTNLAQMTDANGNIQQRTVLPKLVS
For `c1ccc(-c2n[nH]c3c2oc2ccccc23)cc1`, the remaining activity was 95.4%.
With `Cc1cc(Nc2cc(N3CCN(C)CC3)nc(Sc3ccc(NC(=O)C4CC4)cc3)n2)[nH]n1` the remaining activity was 101%.
`O=C(c1cc2cc(O)ccc2[nH]1)c1cc2cc(O)ccc2[nH]1` has a remaining activity of 89%.
With `CCCNC(=O)Nc1ccc(Oc2ncnc3cc(OC)c(OC)cc23)cc1Cl` the remaining activity was 108%.
For `O=C1NC(=O)c2c1c1c3ccccc3[nH]c1c1[nH]c3cc(Br)ccc3c21`, the remaining activity was 70.5%.
With `Oc1cccc(-c2nc(N3CCOCC3)c3oc4ncccc4c3n2)c1` the remaining activity was 97.6%.
The remaining activity of `N#Cc1cnc2cnc(NCc3cccnc3)cc2c1Nc1ccc(F)c(Cl)c1` is reported as 95.5%.
The remaining activity of `O=C1Cc2c([nH]c3ccc(Br)cc23)-c2ccccc2N1` is reported as 107%.
For `O=C1NC(=O)c2c1c1c3ccccc3[nH]c1n1cncc21`, the remaining activity was 64.1%.
`COc1ccc2c(c1)c(C1=C(c3c[nH]c4ccccc34)C(=O)NC1=O)cn2CCCN(C)C` gave a remaining activity of 92.4%.
The remaining activity of `COc1cccc(-c2cc(=O)c3ccccc3o2)c1N` is reported as 92.5%.
`c1ccc2c(-c3ccncc3)c[nH]c2c1` has a remaining activity of 77.5%.
For `O=c1cc(N2CCOCC2)oc2c(-c3ccccc3)cccc12`, the remaining activity was 90.8%.
`CN1CCN(c2ccc3nc(-c4c(N)c5c(F)cccc5[nH]c4=O)[nH]c3c2)CC1` gave a remaining activity of 105%.
For `CCCCc1c(-c2ccc(OC)cc2)[nH]c2nccnc12`, the remaining activity was 92.9%.
With `CN(C)S(=O)(=O)c1ccc2c(c1)/C(=C/c1cc3c([nH]1)CCCC3)C(=O)N2` the remaining activity was 103%.
The remaining activity of `O=C1Nc2ccccc2/C1=C\c1c(Cl)[nH]c2ccccc12` is reported as 103%.
With `O=C1Nc2ccc(Br)cc2/C1=C/c1cc2c([nH]1)CCCC2` the remaining activity was 90.8%.

Series 4
Target: DNA polymerase theta, helicase domain (POLQ, Homo sapiens, UniProt O75417)
Chain of UniProt O75417 (whole entry, looked up): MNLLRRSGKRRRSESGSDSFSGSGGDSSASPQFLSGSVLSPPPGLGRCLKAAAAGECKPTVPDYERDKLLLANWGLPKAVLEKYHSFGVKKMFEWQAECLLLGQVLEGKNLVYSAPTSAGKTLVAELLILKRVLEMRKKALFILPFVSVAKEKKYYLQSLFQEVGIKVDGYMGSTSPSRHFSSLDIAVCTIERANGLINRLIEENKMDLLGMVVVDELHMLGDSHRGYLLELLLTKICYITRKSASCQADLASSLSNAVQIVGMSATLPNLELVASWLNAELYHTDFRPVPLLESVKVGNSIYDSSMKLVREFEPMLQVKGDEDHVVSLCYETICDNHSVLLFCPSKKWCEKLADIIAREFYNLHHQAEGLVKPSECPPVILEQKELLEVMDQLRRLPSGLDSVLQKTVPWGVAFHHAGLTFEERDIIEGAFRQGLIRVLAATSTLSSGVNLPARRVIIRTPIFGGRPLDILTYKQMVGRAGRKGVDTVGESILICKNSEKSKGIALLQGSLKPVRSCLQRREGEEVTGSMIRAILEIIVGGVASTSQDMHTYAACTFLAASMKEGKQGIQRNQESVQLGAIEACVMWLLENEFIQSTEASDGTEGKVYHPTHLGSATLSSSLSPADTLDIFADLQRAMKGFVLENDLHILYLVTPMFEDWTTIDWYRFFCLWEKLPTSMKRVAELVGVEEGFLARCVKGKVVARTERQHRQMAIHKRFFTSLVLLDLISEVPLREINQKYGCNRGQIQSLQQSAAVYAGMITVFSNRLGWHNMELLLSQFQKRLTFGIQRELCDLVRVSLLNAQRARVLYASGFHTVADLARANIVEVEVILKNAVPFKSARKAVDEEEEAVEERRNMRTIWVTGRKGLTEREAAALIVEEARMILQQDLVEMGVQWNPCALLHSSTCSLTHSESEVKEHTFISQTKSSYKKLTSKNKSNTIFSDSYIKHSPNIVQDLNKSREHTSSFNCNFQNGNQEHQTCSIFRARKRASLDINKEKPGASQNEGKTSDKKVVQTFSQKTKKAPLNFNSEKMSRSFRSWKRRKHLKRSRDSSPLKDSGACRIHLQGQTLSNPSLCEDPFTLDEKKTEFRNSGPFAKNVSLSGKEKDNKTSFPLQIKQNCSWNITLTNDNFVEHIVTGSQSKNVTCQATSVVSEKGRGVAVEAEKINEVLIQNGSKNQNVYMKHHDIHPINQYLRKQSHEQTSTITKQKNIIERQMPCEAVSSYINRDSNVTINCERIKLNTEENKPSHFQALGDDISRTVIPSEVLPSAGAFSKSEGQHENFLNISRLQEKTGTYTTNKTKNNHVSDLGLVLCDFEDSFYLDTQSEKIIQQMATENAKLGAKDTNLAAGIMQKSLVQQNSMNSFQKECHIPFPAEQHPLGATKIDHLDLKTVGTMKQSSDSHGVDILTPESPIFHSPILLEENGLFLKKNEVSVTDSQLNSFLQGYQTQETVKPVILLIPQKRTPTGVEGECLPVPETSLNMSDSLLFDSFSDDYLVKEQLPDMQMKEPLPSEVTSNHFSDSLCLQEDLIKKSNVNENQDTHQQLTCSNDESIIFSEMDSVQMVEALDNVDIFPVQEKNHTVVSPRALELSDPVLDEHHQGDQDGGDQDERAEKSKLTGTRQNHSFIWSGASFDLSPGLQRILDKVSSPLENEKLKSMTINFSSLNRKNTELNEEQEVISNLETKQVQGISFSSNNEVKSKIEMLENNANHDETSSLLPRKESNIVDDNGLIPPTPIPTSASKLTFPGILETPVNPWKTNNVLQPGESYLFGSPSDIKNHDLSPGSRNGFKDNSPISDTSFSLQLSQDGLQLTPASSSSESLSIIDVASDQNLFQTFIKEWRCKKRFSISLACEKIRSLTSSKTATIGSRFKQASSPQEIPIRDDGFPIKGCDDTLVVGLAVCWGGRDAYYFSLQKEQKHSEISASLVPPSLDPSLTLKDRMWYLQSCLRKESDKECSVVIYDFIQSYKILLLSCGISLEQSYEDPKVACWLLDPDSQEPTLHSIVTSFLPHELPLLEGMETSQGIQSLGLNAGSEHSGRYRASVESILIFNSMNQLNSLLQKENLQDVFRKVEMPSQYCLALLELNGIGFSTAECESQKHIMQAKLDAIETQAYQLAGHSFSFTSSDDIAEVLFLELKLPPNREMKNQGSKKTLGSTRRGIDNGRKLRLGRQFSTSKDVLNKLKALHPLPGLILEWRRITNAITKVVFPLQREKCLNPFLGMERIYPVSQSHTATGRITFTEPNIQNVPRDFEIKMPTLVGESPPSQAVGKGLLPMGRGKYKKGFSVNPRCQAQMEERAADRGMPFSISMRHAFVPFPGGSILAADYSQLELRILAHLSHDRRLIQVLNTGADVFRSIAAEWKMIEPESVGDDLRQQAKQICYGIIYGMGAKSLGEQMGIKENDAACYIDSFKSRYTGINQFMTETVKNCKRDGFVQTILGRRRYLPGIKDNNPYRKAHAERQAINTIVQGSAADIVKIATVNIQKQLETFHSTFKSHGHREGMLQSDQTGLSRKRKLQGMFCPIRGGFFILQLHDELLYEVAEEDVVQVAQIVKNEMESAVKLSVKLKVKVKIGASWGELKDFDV
Mode: inhibitor
Concentration: concentration not given
Together with: without ssDNA
The remaining activity of `COC(=O)[C@]12CCC(C)(C)C[C@H]1[C@H]1C(=O)C=C3[C@@]4(C)C=C(C#N)C(=O)C(C)(C)[C@@H]4CC[C@@]3(C)[C@]1(C)CC2` is reported as 90.3% and 88.1%.
`CCCCCCCCCCCCCCCC(=O)OC[C@H](O)[C@H]1OC(=O)C(O)=C1O` has a remaining activity of 42.5% and 43.8%.
`Cc1ccc(C(=O)c2cc(O)c(O)c([N+](=O)[O-])c2)cc1` has a remaining activity of 42.5% and 42.4%.
`O=C(Nc1ccccc1C(=O)O)c1cccc(S(=O)(=O)N2CCCC2)c1` gave a remaining activity of 55.4% and 53.7%.
